Experimental data pooled from the literature.
Parts stem from different laboratories: compare values within a part only. Substitutions count along the parent as printed.

Sample 1 — method: protein-binding microarray; form: double-stranded DNA, one strand shown; sample: in vitro; concentration: 2540 nM top; notes: 60-bp whole probe; together with: salmon DNA 0.4 mg/ml; baseline: random background probes; reading: higher = stronger binding; shared flanks, not repeated: GCCTAGCAC … GTCTTGATTCGCTTGACGCTGCTG
Target: Interferon regulatory factor 3, full length, phosphomimetic (IRF3, Homo sapiens, UniProt Q14653, residues 1-427, S386D/S396D/S398D/S402D/T404D/S405D)
Sequence of UniProt Q14653 (whole entry, unmodified, looked up): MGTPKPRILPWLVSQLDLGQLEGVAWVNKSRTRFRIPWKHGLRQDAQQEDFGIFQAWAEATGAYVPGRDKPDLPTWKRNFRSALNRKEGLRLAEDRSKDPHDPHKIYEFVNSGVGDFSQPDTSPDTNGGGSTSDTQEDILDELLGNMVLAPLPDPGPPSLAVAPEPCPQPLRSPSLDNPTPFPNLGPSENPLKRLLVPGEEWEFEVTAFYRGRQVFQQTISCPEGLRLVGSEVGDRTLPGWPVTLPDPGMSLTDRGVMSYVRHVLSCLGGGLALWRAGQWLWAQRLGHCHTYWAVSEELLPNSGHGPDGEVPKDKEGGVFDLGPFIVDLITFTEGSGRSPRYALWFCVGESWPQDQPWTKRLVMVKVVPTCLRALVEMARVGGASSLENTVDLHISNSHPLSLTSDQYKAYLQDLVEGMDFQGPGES
Oligonucleotide	fitted relative affinity [z-score]
TCAATCCTCTCACCTCAGACTGTGCTA	0.0898
AGATTTATCAAATGTGGGATTGTGCTA	-0.0969
TACGATATCGGGTTTCGAGACGTGCTA	0.951
TTAGATTTCAGACTGGATTAGTGCTAG	0.68
TTAGAACTGATTTTCGATTAGTGCTAG	0.9
GATTGGTTGAACATGAACTTGTGCTAG	-0.274

Sample 2 — target: CCNB3, cyclin fold, Cln2 fusion (human); method: yeast growth competition, sequencing; sample: yeast; notes: weak parent motif; baseline: not given; reading: higher = stronger binding
Parent: WEE1 docking peptide (human); HKTFRKLRLFDTP
Variant	normalised enrichment score
F10H	-0.282
F10K	-0.337
H1V	-0.812
K6M	-0.45

Sample 3 — target: CREB3, bZIP domain (human); method: DHFR protein complementation; sample: yeast; baseline: wild-type JUN-FOS pair; reading: higher = stronger binding
Notes: single substitutions, most at no-binding floor
Parent: JUN, bZIP domain (human); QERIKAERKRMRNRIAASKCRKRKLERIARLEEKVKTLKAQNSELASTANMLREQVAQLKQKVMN; partner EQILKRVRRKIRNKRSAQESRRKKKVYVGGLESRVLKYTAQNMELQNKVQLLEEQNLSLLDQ
Variant	binding fitness
E32C	-1.44 natural log
S47W	-1.45 natural log
S47P	-1.48 natural log

Other studies, line by line
Molecule	target	assay	system	conditions	how to read	measurement	value
PhoQ, residues 284 288 289 292 302 303 SCKMEA	PhoP, residues 12 14 15 18 19 LWHVM (Escherichia coli, UniProt P23836)	Sort-seq, measured: YFP reporter	E. coli	PhoQ-PhoP variant library, together with: 10 µM Mg2+	baseline: high Mg2+ state, higher = stronger signaling	fold induction	2.3

Excerpt of the above (sample 1):
Oligonucleotide	fitted relative affinity [z-score]
TCAATCCTCTCACCTCAGACTGTGCTA	0.0898
AGATTTATCAAATGTGGGATTGTGCTA	-0.0969
